Experimental data from different studies.
Every numbered part comes from another study and shows a few of its results, in no order. Substitutions count along the parent as printed.

Study 1 — technique: RNA Bind-n-Seq; form: RNA; sample: in vitro; tested at: 1 µM; notes: whole 134-nt RNA, ends assumed; with: 150 mM KCl; reference: input library; reading: higher = stronger binding; measurement: log2 enrichment
Target: Ras GTPase-activating protein-binding protein 1, C-terminal RGG region (G3BP1, Homo sapiens, UniProt Q13283)
UniProt Q13283, sequence (whole entry, looked up): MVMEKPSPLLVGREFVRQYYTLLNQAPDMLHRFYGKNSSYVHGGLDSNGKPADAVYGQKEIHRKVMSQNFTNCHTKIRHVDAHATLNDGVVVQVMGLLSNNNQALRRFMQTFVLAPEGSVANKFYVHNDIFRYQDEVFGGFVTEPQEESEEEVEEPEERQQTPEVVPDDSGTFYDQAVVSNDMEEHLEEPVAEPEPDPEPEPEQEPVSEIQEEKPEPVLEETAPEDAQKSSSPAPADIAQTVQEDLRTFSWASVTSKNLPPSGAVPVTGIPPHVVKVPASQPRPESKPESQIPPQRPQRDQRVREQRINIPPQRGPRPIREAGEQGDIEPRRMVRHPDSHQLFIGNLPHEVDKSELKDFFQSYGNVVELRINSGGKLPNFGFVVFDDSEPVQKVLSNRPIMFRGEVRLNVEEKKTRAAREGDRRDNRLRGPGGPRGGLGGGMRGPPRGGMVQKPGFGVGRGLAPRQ
Shared flanks, not repeated: GGGAGUUCUACAGUCCGACGAUC … UGGAAUUCUCGGGUGUCAAGG
AAGUCCUGUGCUACACAUCGUAUGUACCGAAUCGGGGCCCGGGCCCGGGGCCCGGGGAAAGUAUUAUGUUACGCCGUUCGGAUCUGCACU: -2.56
CAAGUCCUGUGCUACACAUCGUAUGUACCGAAUCGGUUUGGGGUUUGGGUUUGGGAAAGUAUUAUGUUACGCCGUUCGGAUCUGCACUUC: -0.295
UAACUUUAGAGGAGGAUCUGAUGGAUAUGGCAGUGGACGUUGAUUUGGGGAUGGCUAUAAUGGGUAUGGAGGAGGACCUGGAGGUGGCAA: -1.1
CACAGACAACACGCACCCACACAGACACAGAGGGAAGGGGUUGGGAUGGGGACAGGGUGCACAGCAGGGCGGGGUAGGACCCCAGCGCCU: -0.751
UAACUUUAAAGGAGGAUCUGAUGGAUAUGGCAGUGGACGUGGAUUUGGGGAUGGCUAUAAUGGGUAUGGAGGAGGACCUGGAGGUGGCAA: -1.34
GCAGGAAGUAAAAACAAAUGGAAAUGCUUCGGAUAGUGGCAAAGGUGGGGGUUGCUAAGGAAAGGGUGGGAUGGGAGUGGGUAAAGAGUU: 2.29
AAGUCCUGUGCUACACAUCGUAUGUACCGAAUCGGGCCCCGGCCCCGGGCCCCGGGAAAGUAUUAUGUUACGCCGUUCGGAUCUGCACUU: -2.18
UCCUGUGCUACACAUCGUAUGUACCGAAUCAAACCCCCAAAUUUUUUUAAAUUUUUAAAAAAGUAUUAUGUUACGCCGUUCGGAUCUGCA: -0.638

Study 2 — technique: RNAcompete; form: RNA; sample: in vitro; tested at: 20 nM; notes: 7-mer, probes averaged, single round; reference: mean of 7-mers; reading: higher = stronger binding; measurement: 7-mer Z-score
Target: PABPC1L2, full length, GST fusion (mouse, UniProt A0ABA7IW68)
Target sequence (chain): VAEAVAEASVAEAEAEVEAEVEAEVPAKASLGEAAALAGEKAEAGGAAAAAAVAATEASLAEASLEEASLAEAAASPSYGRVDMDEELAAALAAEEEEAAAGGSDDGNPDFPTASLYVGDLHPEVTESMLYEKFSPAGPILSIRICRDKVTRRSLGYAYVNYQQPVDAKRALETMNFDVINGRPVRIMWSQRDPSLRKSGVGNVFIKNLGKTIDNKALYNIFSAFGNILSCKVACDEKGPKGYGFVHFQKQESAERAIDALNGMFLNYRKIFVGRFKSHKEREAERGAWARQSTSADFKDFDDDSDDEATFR
CGAGGGC: 0.345
GUCGGUC: -0.316
UUAGGGA: 0.124
CCUCGGG: -0.342
UGUAAGC: -0.161
UAUUGGC: -0.126
GGCCAGG: 0.222
AACUAAU: 0.046
CAUACAA: 0.408
AUAGUGA: -0.175

Study 3 — target: CCND3, cyclin fold, Cln2 fusion (human); technique: yeast growth competition, sequencing; sample: yeast; notes: weak parent motif; reference: not given; reading: higher = stronger binding; measurement: normalised enrichment score
Starting sequence: CCP110 docking peptide (human); EKVKRRLDLDIDG
EKVKRRLDLDIDA [G13A]: 0.11
EKVKRRLDLDIAG [D12A]: 0.162
EKVKARLDLDIDG [R5A]: 0.0962
AKVKRRLDLDIDG [E1A]: 0.134
EKVKRRLDLDADG [I11A]: 0.0797
EKVKRRLDLAIDG [D10A]: 0.183
EKVKKRLDFDIDG [R5K L9F]: 0.155

Mixed results
PhoQ, residues 284 288 289 292 302 303 SSCLAV — fold induction (PhoP, residues 12 14 15 18 19 GQAIL (Escherichia coli, UniProt P23836); Sort-seq, refers to: YFP reporter; E. coli; PhoQ-PhoP variant library, with: 10 µM Mg2+; reference: high Mg2+ state, higher = stronger signaling): 12.9

A few entries again (study 3):
EKVKKRLDFDIDG [R5K L9F]: 0.155
EKVKRRLDLDIDA [G13A]: 0.11
EKVKRRLDLAIDG [D10A]: 0.183
AKVKRRLDLDIDG [E1A]: 0.134
